Experimental data pooled from the literature.
Each line is one published result; not all experiments were run side by side. Numbers after ± are the reported error.
Cell line: HCT-116

C=CCNC(=O)CNC(=O)CCn1nc(Cc2ccccc2)c2ccccc2c1=O  IC50 (cell growth or viability, MTT; 48 h): 7.98 µM
Cc1ccc2nc(C)n(/N=C/c3ccc(C(=O)O)cc3)c(=O)c2c1  IC50 (cytotoxicity, LDH release; 24 h, 50% viability reduction): 460 ± 12.1 µM
CCN1CCC2(CC1)C/C(=N\NC(=O)Nc1ccc([N+](=O)[O-])cc1)c1ccccc1O2  IC50 (48 h): 62.7 ± 2.67 µM
Cc1cc(N2CCN(C(=O)CN3CCCCC3)CC2)n2ncnc2n1  IC50 (cell growth or viability, MTT): 73.9 µM
O=C(NCCCCCNc1n[n+]([O-])c2ccccc2[n+]1[O-])C(F)(F)F  IC50 (cytotoxicity, MTT; 10% FBS medium; 6 h + 18 h, hypoxia 3% O2): 44.1 ± 10.2 µM
Cc1cc(C)c([N+]#[C][Pd-]([Cl])([Cl])=[C](Nc2ccc(CN[C](NC(C)(C)C)=[Au][Cl])cc2)Nc2c(C)cc(C)cc2C)c(C)c1  IC50 (cell growth or viability): > 100 µM
CCCCc1ccc(C(=O)O[C@@H]2CC(=O)O[C@H](C)C/C=C/C=C/[C@H](O[C@H]3CC[C@H](N(C)C)[C@@H](C)O3)[C@H](C)C[C@H](CC=O)[C@H](O[C@@H]3O[C@H](C)[C@@H](O[C@H]4C[C@@](C)(O)[C@@H](O)[C@H](C)O4)[C@H](N(C)C)[C@H]3O)[C@H]2OC)cc1  IC50 (cell growth or viability, CCK-8; 72 h): 12.4 µM
COc1ccc(NC(=O)N/N=C2\CC3(CCN(C)CC3)Oc3ccccc32)cc1  IC50 (48 h): 1.15 ± 0.05 µM
Cc1c(C(=O)NNC(=S)Nc2ccc(Cl)cc2)nnn1Cc1nc2ccccc2[nH]1  IC50 (48 h): 8.34 ± 0.6 µM
Cc1cc(C)c([N+]#[C][Pd-2]([Cl])([Cl])[C]#[N+]c2c(C)cc(C)cc2C)c(C)c1  IC50 (cell growth or viability): > 100 µM
O=C(CCc1nc2cc(Cl)ccc2[nH]c1=O)Nc1ccc(Cl)cc1  IC50 (cell growth or viability, MTT): 62.2 µM
O=c1[nH]c2ccccc2nc1/C=C/c1ccc2ccccc2n1  IC50 (cell growth or viability, MTT; 72 h): > 50 µM
C/C(=N\N=C1/NC(=O)CS1)c1c(O)c2ccccc2oc1=O  IC50 (cell growth or viability, MTT; 48 h): 9.5 µM
O=C(COC(=O)CCCn1c(=O)oc2cc([N+](=O)[O-])ccc21)Nc1cccc(Cl)c1  IC50 (cell growth or viability, MTT; 36 h): 77.3 µM
CCCc1cc(O)nc(SCCOC(=O)[C@]2(C)CCC[C@]3(C)c4ccc(C(C)C)cc4CCC23)n1 (stereo partly shown)  IC50 (cell growth or viability, MTT; 48 h): 9.53 µM
CSc1nc(Nc2cccc(/C(C)=N/NC(=O)c3ccccc3O)c2)c(C#N)c(-c2ccccc2)n1  IC50 (cell growth or viability, MTT; 48 h): 19.4 µM
N=C(N)NS(=O)(=O)c1ccc(-n2cc(Cn3c(=O)c(Cc4ccccc4)nc4ccccc43)nn2)cc1  IC50 (cell growth or viability, MTT; 72 h): 0.029 µM
CNCCNC(=O)c1cn(C23CCCC(C)(CCC4C2CC4(C)C)C3)nn1 (stereo not shown)  IC50 (cell growth or viability, CCK-8; 72 h): 14.5 µM
COc1cccc2cc(C(=O)NNc3nc(-c4ccccc4)cs3)c(=O)oc12  IC50 (cell growth or viability, SRB; 72 h): 193 µM
CN1CCN(c2ccc(Nc3ncc(F)c(-c4cn(C5CCCCC5)nn4)n3)cc2)CC1  IC50 (cell growth or viability, SRB; 72 h): 7.89 µM
NOCC(=O)O  IC50 (cell growth or viability; 48 h): ~300 µM
C/C(=N\NC(=S)SCc1ccccc1)c1ccc(S(=O)(=O)N2CCC(C)CC2)cc1  IC50 (cell growth or viability, MTT): 117 µM
Cc1c(C)c(C)[c-](C)c1C.O=Cc1ccc(-c2[c-]cccc2)nc1.[Cl-].[Ir+3]  IC50 (SRB; 24 h, 72 h recovery): 18.8 ± 0.5 µM
Cc1ccc(C(C)C)cc1.[Cl][Au].[Cl][Ru][Cl].c1ccc(P(CP(c2ccccc2)c2ccccc2)c2ccccc2)cc1  IC50 (cell growth or viability, trypan blue; 48 h): 4.6 µM
COc1ccc2c(c1)OCc1c-2oc2cc3c(cc12)OCO3  IC50 (cell growth or viability, MTT; 72 h): 27 µM
CCC1=C(CC)C2=[N+]3C1=Cc1c(CC)c(CC)c4[n]1[Ir-3]31([C]#[N+]c3ccc(OC)cc3)([C]#[N+]c3ccc(OC)cc3)[n]3c(c(CC)c(CC)c3=CC3=[N+]1C(=C4)C(CC)=C3CC)=C2.F[B-](F)(F)F  IC50 (cell growth or viability, MTT; 72 h): 23 µM
Cc1cc(C)c([N+]#[C][Pt-]([Cl])([Cl])=[C](Nc2cccc(CN[C](Nc3c(C)cc(C)cc3C)=[Au][Cl])c2)Nc2c(C)cc(C)cc2C)c(C)c1  IC50 (cell growth or viability): > 100 µM
COCCOCCSc1nc(N)c2c(F)c(C#N)c(F)c(Cl)c2n1  IC50 (cell growth or viability, MTT; 96 h): 5.68 µM
CSc1nc(Nc2cccc(/C(C)=N/NC(=O)c3ccccc3Cl)c2)c(C#N)c(-c2ccccc2)n1  IC50 (cell growth or viability, MTT; 48 h): 8.65 µM
Cc1cc(C)c(N[C](NCc2ccc(N[C](Nc3c(C(C)C)cccc3C(C)C)=[Pt-]([Cl])([Cl])[C]#[N+]c3c(C(C)C)cccc3C(C)C)cc2)=[Au][Cl])c(C)c1  IC50 (cell growth or viability): > 100 µM
O=C(CCCCCCOc1ccc(Nc2ncc(F)c(-c3cn(C4CCCCC4)nn3)n2)cc1)NO  IC50 (cell growth or viability, SRB; 72 h): 2.19 µM
N#Cc1c(F)c(F)c2nc(SCC3CCCO3)nc(N)c2c1F (stereo not shown)  IC50 (cell growth or viability, MTT; 96 h): 5.68 µM
O=C(NCCCCCCNc1n[n+]([O-])c2ccccc2[n+]1[O-])C(F)(F)F  IC50 (cytotoxicity, MTT; 24 h, normoxia): 110 ± 2.2 µM
O=C(NCCC#Cc1cc(Nc2nccc(-c3ccn([C@H](CO)c4ccc(Cl)c(F)c4)c(=O)c3)n2)ccn1)OC1CC/C=C/CCC1 (stereo partly shown)  IC50 (cell growth or viability, resazurin; 96 h): 1 µM
CC(C)c1cccc(C(C)C)c1[N+]#[C][Pt-]([Cl])([Cl])=[C](Nc1cccc(CN[C](NC(C)(C)C)=[Au][Cl])c1)Nc1c(C(C)C)cccc1C(C)C  IC50 (cell growth or viability): > 100 µM
CC(C)c1ccc2c(c1)CCC1[C@](C)(C(=O)OCCSc3nc(O)c(C#N)c(-c4ccc(F)cc4)n3)CCC[C@]21C (stereo partly shown)  IC50 (cell growth or viability, MTT; 48 h): 9.53 to 19.4 µM
CCCCCCCCCCCCCCCC(=O)O[C@H]1[C@H](C)O[C@@H](O[C@H]2[C@H](N(C)C)[C@@H](O)[C@H](O[C@H]3[C@@H](CC=O)C[C@@H](C)[C@@H](O[C@H]4CC[C@H](N(C)C)[C@@H](C)O4)/C=C/C=C/C[C@@H](C)OC(=O)C[C@@H](O)[C@@H]3OC)O[C@@H]2C)C[C@@]1(C)O  IC50 (cell growth or viability, CCK-8; 72 h): 14.6 µM
O=c1c(Cc2ccccc2)nc2ccccc2n1-c1ccc([N+](=O)[O-])cc1[N+](=O)[O-]  IC50 (cell growth or viability, MTT; 72 h): 0.463 µM
CO[C@@H]1[C@@H](O[C@@H]2O[C@H](C)[C@@H](O[C@H]3C[C@@](C)(O)[C@@H](OC(=O)CN(C)C)[C@H](C)O3)[C@H](N(C)C)[C@H]2O)[C@@H](CC=O)C[C@@H](C)[C@@H](O[C@H]2CC[C@H](N(C)C)[C@@H](C)O2)/C=C/C=C/C[C@@H](C)OC(=O)C[C@H]1O  IC50 (cell growth or viability, CCK-8; 72 h): > 50 µM
COC(=O)CNC(=O)COc1ccc2c(C)cc(=O)oc2c1  IC50 (cell growth or viability, MTT): 63.8 µM

For quick reference, copied from above:
O=C(NCCCCCNc1n[n+]([O-])c2ccccc2[n+]1[O-])C(F)(F)F  IC50 (cytotoxicity, MTT; 10% FBS medium; 6 h + 18 h, hypoxia 3% O2): 44.1 ± 10.2 µM
O=C(NCCC#Cc1cc(Nc2nccc(-c3ccn([C@H](CO)c4ccc(Cl)c(F)c4)c(=O)c3)n2)ccn1)OC1CC/C=C/CCC1 (stereo partly shown)  IC50 (cell growth or viability, resazurin; 96 h): 1 µM
O=c1c(Cc2ccccc2)nc2ccccc2n1-c1ccc([N+](=O)[O-])cc1[N+](=O)[O-]  IC50 (cell growth or viability, MTT; 72 h): 0.463 µM
Cc1cc(C)c([N+]#[C][Pt-]([Cl])([Cl])=[C](Nc2cccc(CN[C](Nc3c(C)cc(C)cc3C)=[Au][Cl])c2)Nc2c(C)cc(C)cc2C)c(C)c1  IC50 (cell growth or viability): > 100 µM
